Assay results pooled from the literature.
Numbered parts are unrelated; each lists some results of a single study.

Set 1 — technique: universal PBM; form: double-stranded DNA, one strand shown; sample: in vitro; tested at: 600 nM; direction: higher = stronger binding; quantity: E-score
Target: Sal-like protein 4, full length isoform A (SALL4, Homo sapiens, UniProt Q9UJQ4, residues 1-1053)
UniProt Q9UJQ4, sequence (whole entry, looked up): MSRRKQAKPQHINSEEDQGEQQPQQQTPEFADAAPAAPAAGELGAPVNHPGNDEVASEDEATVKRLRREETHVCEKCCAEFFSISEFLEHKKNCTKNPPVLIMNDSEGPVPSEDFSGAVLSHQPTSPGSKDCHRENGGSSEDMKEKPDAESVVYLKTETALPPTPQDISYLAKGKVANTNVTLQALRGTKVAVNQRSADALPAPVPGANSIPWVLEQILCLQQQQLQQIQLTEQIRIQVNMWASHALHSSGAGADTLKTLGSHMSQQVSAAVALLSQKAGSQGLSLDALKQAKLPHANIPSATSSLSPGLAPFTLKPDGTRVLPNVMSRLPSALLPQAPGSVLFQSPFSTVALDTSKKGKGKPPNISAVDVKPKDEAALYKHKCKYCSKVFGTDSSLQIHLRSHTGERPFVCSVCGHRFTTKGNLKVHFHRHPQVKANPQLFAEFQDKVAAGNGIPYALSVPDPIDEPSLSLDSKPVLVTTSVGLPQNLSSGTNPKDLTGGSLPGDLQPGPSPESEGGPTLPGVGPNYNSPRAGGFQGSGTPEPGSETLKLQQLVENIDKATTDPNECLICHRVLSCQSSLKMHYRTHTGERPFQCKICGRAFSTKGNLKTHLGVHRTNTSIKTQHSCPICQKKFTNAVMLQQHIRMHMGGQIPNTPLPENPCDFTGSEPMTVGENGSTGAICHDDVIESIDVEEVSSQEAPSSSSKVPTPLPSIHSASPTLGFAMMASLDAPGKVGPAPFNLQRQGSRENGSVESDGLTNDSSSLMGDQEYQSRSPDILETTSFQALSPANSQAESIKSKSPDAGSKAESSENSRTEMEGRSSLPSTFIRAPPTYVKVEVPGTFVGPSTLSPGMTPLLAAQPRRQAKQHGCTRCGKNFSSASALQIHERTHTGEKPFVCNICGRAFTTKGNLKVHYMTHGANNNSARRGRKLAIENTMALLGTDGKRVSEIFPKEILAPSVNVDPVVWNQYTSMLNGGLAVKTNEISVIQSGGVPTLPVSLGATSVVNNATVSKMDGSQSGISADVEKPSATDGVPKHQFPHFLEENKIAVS
Setting: 8-mer, flanks averaged, mean of replicates
CCATGTGA: -0.087
CAGAAAGA: 0.0596
GGGGATCA: -0.189
TCCAACAA: 0.0636
GTTACAAC: 0.108
GCCAGAGC: -0.303
AAGTACGT: 0.118

Set 2 — technique: protein binding microarray; form: double-stranded DNA, one strand shown; sample: in vitro; tested at: not given; relative to: not given; direction: higher = stronger binding; quantity: E-score
Target: Histone acetyltransferase KAT6A, winged helix 1, GST fusion (KAT6A, Homo sapiens, UniProt Q92794, residues 1-85)
Setting: 8-mer, flanks averaged, mean of 2 arrays, mostly near background
Target sequence (chain): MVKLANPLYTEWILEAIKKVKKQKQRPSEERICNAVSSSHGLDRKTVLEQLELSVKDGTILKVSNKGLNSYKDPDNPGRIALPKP
CATTTAGC: -0.142
CTCAGCTC: -0.0684
GACCCGCC: 0.386
CCGACTAC: 0.17

Set 3 — technique: protein-binding microarray; form: double-stranded DNA, one strand shown; sample: in vitro; tested at: 250 nM; setting: 60-bp whole probe; with: salmon DNA 0.4 mg/ml; relative to: random background probes; direction: higher = stronger binding; quantity: log fluorescence
Target: Interferon regulatory factor 5, full length, phosphomimetic (IRF5, Homo sapiens, UniProt Q13568-2, residues 1-514, K96S/S451D/S453D/S456D/S462D)
GCCTAGCACGACGCACTGAGTCTCGAGACGTGCTAGGTCTTGATTCGCTTGACGCTGCTG: -0.257 z-score
GCCTAGCACTCACCTAACATGCTTCGAACTGTGCTAGTCTTGATTCGCTTGACGCTGCTG: 0.262 z-score
GCCTAGCACCTTGATTTTGGTCTTTCTGTGTGCTAGGTCTTGATTCGCTTGACGCTGCTG: 1.96 z-score
GCCTAGCACTCACATTCCCCATTGTGACTGTGCTAGGTCTTGATTCGCTTGACGCTGCTG: 0.107 z-score

Single results of other studies
PhoQ, residues 284 288 289 292 302 303 TSTLRA — fold induction (PhoP, residues 12 14 15 18 19 YHFSH (Escherichia coli, UniProt P23836); Sort-seq, refers to: YFP reporter; E. coli; PhoQ-PhoP variant library, with: 10 µM Mg2+; relative to: high Mg2+ state, higher = stronger signaling): 3.98
